Assay results gathered from unrelated publications.
Every numbered part comes from another study and shows a few of its results, in no order. “And” joins repeats or separate records; there may be more than shown. Substitutions count along the parent as printed.
UniProt Q13163, sequence (whole entry, looked up): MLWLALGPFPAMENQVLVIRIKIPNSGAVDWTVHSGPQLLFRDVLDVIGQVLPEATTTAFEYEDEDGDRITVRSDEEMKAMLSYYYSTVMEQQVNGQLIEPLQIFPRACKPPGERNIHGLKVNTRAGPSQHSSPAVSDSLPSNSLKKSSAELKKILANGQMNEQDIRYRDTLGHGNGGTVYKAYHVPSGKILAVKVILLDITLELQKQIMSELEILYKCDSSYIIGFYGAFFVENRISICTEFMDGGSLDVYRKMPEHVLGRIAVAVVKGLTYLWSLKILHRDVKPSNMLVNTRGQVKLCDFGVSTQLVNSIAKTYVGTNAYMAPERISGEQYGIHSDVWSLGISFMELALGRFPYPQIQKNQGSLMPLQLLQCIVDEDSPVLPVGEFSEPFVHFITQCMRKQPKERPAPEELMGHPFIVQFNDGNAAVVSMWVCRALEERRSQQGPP
UniProt Q9H422, sequence (whole entry, looked up): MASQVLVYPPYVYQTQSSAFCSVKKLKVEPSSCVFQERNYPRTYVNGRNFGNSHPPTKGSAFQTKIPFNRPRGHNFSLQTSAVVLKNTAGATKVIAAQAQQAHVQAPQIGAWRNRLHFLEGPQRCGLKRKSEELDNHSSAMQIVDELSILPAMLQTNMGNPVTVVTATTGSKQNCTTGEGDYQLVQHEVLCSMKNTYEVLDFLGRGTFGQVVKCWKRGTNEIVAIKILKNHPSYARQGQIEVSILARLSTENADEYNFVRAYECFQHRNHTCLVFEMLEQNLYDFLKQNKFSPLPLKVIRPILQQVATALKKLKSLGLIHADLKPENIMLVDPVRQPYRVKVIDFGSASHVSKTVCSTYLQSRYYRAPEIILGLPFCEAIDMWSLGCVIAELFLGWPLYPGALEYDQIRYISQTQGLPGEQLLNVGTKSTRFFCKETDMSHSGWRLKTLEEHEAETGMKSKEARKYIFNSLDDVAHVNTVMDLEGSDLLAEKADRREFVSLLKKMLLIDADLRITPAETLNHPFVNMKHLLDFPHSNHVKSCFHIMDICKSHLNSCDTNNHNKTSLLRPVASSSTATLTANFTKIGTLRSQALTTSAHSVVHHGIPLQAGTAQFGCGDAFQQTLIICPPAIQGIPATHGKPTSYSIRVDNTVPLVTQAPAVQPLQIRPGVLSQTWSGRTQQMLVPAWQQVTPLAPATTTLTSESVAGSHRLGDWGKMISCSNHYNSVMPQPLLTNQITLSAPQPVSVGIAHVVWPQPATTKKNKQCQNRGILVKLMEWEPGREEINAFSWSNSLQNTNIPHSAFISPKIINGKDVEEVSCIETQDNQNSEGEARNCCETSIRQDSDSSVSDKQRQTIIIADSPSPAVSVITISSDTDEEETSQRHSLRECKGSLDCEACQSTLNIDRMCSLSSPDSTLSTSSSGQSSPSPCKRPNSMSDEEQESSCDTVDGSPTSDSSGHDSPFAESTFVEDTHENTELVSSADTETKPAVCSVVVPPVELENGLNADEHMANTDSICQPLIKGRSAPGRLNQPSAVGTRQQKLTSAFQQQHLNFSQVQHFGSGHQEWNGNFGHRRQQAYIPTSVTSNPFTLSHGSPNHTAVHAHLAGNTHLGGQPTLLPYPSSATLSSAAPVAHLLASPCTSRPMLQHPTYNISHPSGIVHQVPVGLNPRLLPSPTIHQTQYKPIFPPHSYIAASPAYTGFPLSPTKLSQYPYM
UniProt Q92918, sequence (whole entry, looked up): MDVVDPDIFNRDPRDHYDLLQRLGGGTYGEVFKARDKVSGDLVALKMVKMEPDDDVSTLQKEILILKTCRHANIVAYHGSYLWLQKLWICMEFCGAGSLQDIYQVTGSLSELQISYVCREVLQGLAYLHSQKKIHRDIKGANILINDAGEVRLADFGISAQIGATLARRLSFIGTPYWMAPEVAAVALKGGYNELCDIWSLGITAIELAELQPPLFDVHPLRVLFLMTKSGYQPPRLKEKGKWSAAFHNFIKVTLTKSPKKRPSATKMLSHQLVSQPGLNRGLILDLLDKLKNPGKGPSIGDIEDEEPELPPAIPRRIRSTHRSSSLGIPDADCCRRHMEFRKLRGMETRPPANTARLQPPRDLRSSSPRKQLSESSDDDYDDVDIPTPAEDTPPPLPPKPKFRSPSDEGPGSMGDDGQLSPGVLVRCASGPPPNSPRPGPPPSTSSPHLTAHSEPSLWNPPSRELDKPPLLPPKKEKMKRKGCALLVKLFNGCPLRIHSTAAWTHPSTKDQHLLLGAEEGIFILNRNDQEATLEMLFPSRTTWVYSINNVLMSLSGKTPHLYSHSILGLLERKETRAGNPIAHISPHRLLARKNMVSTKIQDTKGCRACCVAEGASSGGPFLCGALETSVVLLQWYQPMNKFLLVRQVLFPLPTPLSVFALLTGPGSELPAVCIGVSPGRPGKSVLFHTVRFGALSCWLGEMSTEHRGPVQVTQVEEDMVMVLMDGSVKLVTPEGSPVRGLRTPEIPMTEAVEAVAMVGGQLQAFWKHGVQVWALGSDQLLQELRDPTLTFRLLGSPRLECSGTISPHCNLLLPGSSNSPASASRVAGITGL
UniProt P42336, sequence (whole entry, unmodified, looked up): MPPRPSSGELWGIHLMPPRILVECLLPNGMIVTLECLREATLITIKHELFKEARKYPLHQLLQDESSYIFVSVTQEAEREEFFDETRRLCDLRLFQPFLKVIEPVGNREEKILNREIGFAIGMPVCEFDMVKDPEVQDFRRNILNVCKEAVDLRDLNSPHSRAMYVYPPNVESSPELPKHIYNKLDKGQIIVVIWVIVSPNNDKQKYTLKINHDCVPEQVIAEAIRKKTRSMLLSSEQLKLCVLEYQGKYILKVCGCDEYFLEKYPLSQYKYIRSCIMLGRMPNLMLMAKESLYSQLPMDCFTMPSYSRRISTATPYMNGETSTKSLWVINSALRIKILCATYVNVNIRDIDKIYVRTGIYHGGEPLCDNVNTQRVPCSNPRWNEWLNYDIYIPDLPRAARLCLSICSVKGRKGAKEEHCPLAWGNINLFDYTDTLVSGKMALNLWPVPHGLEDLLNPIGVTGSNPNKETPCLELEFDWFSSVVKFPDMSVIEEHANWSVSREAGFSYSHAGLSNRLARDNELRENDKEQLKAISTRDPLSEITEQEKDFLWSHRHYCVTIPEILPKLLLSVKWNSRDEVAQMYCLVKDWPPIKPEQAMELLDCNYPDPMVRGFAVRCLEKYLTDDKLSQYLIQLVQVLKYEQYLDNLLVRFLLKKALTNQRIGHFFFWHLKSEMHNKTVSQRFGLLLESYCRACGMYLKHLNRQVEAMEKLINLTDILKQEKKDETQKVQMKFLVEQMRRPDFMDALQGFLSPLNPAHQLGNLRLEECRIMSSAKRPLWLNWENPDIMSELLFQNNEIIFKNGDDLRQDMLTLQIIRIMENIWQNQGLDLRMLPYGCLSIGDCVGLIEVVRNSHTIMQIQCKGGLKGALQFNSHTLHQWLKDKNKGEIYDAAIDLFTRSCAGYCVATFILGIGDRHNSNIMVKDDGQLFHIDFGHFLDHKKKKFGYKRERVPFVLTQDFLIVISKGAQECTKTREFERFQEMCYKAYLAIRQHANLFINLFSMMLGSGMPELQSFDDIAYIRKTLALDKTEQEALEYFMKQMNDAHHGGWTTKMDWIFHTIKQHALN
UniProt P10721, sequence (whole entry, unmodified, looked up): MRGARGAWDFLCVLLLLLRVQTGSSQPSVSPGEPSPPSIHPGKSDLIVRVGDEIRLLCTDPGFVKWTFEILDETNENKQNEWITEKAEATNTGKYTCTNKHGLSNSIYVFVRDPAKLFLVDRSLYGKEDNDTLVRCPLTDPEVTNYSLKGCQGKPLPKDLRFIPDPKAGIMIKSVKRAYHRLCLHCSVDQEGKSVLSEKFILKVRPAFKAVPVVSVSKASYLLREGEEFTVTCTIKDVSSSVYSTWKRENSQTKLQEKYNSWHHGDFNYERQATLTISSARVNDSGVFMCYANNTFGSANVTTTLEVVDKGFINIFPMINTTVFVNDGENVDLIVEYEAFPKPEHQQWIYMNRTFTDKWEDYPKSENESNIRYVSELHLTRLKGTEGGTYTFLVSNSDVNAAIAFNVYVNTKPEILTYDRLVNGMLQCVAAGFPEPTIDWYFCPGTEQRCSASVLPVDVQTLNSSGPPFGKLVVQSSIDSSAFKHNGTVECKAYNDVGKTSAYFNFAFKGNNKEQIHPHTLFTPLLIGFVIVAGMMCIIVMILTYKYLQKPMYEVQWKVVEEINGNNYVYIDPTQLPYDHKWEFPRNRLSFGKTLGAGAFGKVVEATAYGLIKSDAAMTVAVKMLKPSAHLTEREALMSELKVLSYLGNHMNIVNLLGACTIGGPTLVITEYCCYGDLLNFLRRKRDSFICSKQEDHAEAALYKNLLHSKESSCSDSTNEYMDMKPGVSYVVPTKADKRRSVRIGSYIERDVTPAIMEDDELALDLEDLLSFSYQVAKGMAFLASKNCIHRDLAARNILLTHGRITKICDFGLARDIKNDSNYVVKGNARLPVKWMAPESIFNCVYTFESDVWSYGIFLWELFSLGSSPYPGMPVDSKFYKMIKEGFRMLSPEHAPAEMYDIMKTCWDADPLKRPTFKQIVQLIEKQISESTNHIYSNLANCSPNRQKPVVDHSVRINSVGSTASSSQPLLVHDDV

Study 1
SMILES: c1ccc(Oc2ccc(Nc3c4c(nc5ccccc35)CCC4)cc2)cc1
Organism: Leishmania donovani
Observed: parasite growth
strain | matrix | concentration | setting | inhibition
DD8 amphotericin B-resistant | intracellular amastigotes | 0.4 µM | – | 36% and 37% and 32% and 35%
DD8 amphotericin B-resistant | promastigotes | 0.33 µM | – | 10% and 5% and 8% and 2%
– | – | 0.2 µM | intracellular, amastigote | 3%
DD8 amphotericin B-resistant | promastigotes | 0.0066 µM | – | 1% and 2% and 5%

Study 2
Target: Serine/threonine-protein kinase 33 (STK33, Homo sapiens, UniProt Q9BYT3)
UniProt Q9BYT3, sequence (whole entry, looked up): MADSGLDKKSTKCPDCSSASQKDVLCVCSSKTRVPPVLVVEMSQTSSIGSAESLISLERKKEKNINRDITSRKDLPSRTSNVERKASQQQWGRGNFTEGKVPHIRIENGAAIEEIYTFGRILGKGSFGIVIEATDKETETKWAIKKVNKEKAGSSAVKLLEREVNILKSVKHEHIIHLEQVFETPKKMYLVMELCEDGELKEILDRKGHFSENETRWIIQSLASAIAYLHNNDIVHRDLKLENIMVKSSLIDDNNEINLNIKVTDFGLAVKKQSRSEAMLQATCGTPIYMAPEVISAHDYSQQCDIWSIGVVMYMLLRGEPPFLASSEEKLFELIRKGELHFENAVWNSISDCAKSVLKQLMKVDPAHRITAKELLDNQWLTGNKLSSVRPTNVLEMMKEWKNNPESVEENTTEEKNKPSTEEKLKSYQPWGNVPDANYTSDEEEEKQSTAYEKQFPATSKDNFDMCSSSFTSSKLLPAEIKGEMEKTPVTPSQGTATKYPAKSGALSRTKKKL
Observed: enzyme activity
Mode: inhibitor
Technique: radiometric
Concentration: 0.5 µM
SMILES | remaining activity
COc1ccc(OC)c2c(=S)c3ccccc3[nH]c12 | 98.4%
Oc1ccc(-c2nc(-c3ccncc3)c(-c3ccc(F)cc3)[nH]2)cc1 | 103%
Cc1ccc(NC(=O)c2ccc(CN3CCN(C)CC3)cc2)cc1Nc1nc(-c2cccnc2)cs1 | 91.1%
COc1cc2ncnc(Nc3ccc(Oc4ccccc4)cc3)c2cc1OC | 96.3%

Study 3
Cell line: mouse MPNST tumor cells
Technique: high-content nuclear imaging
Refers to: cell number
Concentration: 10 µM
Time: 12 h
Setting: mean of 2 replicates
Baseline: plate mean
Direction: higher = more cells
SMILES | nuclei count
CC[C@@H](CO)NC(=O)[C@@H]1C=C2c3cccc4[nH]cc(c34)C[C@H]2N(C)C1 | 0.961 z-score
c1ccc([C@@H]2C[C@H]2NC2CCNCC2)cc1 | 0.832 z-score and 1.77 z-score
Oc1ccc2c3c1O[C@H]1c4oc5ccccc5c4C[C@@]4(O)[C@@H](C2)N(CC2CC2)CC[C@]314 | 0.676 z-score

Study 4
Target: CCND1, cyclin fold, Cln2 fusion (human)
Technique: yeast growth competition, sequencing
Matrix: yeast
Setting: strong parent motif
Baseline: not given
Direction: higher = stronger binding
Parent: viral docking peptide; KGVKRKLFAEDSS; partner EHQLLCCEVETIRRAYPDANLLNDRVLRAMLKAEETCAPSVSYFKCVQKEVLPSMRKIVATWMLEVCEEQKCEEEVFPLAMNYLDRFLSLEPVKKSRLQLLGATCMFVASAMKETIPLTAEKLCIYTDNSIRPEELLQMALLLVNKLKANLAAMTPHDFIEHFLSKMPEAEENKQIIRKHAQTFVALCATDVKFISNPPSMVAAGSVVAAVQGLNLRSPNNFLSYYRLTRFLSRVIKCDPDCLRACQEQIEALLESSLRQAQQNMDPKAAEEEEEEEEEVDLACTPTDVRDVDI
Variant | normalised enrichment score
V3F | 0.295
K6S | 0.115
S12Y | 1.37
G2H | 1.42
A9S | 1.28
F8H | -0.242
E10M | 0.455
K4R | 2.22

Study 5
SMILES: N#CC1(c2ccccn2)CCN(Cc2cc(C(=O)O)c(=O)n3ccccc23)CC1
Observed: cell-free assay
Technique: competition with immobilised ligand
Concentration: 1 µM
target | remaining binding [%]
WEE1 (Homo sapiens, UniProt P30291) | 99
KDR (Homo sapiens, UniProt P35968) | 79
PRKCE (Homo sapiens, UniProt Q02156) | 100
HIPK3 (Homo sapiens, UniProt Q9H422) | 84
ABL2 (Homo sapiens, UniProt P42684) | 100
KIT (Homo sapiens, UniProt P10721, T670I/V559D) | 100
MAPK7 (Homo sapiens, UniProt Q13164) | 94
PIK3CA (Homo sapiens, UniProt P42336, I800L) | 90
PRKX (Homo sapiens, UniProt P51817) | 100
STK3 (Homo sapiens, UniProt Q13188) | 98
MAP2K5 (Homo sapiens, UniProt Q13163) | 62
Tyrosine-protein kinase ABL1, phosphorylated (ABL1, Homo sapiens, UniProt P00519, M351T) | 57
MAP3K12 (Homo sapiens, UniProt Q12852) | 93
ANKK1 (Homo sapiens, UniProt Q8NFD2) | 68
MAP4K1 (Homo sapiens, UniProt Q92918) | 100

Mixed results
SMILES | species | matrix | concentration | time | quantity | value
COc1ccc2c(c[n+](C)c3c4cc5c(cc4ccc23)OCO5)c1OC | mouse | microsomes or S9 | 2 µM | 0.5 h | remaining compound | 69.8%

A few entries again (study 5):
target | remaining binding [%]
HIPK3 (Homo sapiens, UniProt Q9H422) | 84
ABL2 (Homo sapiens, UniProt P42684) | 100
KIT (Homo sapiens, UniProt P10721, T670I/V559D) | 100
MAPK7 (Homo sapiens, UniProt Q13164) | 94
PIK3CA (Homo sapiens, UniProt P42336, I800L) | 90
